Experimental data gathered from unrelated publications.
Parts stem from different laboratories: compare values within a part only. Values joined by “and” are separate records of one study, mostly repeats; a detail may differ.
Sequence of UniProt P31751 (whole entry, looked up): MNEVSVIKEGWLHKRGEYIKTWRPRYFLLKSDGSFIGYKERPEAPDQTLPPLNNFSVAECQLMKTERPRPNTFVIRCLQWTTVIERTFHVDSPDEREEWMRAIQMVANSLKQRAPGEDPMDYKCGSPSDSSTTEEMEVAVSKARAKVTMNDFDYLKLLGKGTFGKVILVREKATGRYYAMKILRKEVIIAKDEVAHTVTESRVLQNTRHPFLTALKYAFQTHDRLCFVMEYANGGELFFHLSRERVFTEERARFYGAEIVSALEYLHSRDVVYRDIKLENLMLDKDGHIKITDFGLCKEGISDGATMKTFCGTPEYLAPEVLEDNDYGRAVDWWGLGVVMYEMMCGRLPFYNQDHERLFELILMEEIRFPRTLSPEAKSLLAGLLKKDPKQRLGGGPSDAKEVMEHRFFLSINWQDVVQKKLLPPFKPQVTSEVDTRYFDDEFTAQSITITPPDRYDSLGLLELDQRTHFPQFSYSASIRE
Sequence of UniProt P08588 (whole entry, looked up): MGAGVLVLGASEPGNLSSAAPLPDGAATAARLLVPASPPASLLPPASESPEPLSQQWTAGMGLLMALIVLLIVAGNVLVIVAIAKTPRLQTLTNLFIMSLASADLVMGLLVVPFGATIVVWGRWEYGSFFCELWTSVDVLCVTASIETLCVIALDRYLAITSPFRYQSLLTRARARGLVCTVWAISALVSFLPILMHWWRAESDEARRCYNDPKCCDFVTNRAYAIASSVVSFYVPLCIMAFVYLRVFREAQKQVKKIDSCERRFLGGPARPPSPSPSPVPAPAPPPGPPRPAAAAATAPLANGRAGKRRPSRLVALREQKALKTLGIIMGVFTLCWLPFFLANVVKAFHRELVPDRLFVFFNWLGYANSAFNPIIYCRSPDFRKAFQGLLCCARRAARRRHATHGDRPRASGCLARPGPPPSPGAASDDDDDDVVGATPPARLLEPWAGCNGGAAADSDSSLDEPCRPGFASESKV
Sequence of UniProt Q86UE8 (whole entry, looked up): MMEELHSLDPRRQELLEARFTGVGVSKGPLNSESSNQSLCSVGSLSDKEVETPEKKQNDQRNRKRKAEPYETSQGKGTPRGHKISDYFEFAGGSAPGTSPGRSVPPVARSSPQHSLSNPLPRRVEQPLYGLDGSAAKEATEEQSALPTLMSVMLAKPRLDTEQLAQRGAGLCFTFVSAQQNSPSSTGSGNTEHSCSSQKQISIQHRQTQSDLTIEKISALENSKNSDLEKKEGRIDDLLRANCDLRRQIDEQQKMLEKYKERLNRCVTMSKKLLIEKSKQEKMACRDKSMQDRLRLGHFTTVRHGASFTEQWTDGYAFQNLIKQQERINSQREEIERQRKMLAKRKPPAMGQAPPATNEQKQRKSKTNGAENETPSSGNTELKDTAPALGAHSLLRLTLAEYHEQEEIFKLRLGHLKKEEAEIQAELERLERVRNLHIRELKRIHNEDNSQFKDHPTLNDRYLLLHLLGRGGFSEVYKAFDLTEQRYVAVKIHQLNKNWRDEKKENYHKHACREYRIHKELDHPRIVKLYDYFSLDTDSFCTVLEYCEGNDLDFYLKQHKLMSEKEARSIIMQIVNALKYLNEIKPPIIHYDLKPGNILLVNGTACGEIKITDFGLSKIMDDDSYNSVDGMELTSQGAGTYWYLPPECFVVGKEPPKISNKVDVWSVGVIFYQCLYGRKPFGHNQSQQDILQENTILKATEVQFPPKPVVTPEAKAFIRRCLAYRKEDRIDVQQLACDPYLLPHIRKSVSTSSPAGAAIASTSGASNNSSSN
Sequence of UniProt P07949 (whole entry, unmodified, looked up): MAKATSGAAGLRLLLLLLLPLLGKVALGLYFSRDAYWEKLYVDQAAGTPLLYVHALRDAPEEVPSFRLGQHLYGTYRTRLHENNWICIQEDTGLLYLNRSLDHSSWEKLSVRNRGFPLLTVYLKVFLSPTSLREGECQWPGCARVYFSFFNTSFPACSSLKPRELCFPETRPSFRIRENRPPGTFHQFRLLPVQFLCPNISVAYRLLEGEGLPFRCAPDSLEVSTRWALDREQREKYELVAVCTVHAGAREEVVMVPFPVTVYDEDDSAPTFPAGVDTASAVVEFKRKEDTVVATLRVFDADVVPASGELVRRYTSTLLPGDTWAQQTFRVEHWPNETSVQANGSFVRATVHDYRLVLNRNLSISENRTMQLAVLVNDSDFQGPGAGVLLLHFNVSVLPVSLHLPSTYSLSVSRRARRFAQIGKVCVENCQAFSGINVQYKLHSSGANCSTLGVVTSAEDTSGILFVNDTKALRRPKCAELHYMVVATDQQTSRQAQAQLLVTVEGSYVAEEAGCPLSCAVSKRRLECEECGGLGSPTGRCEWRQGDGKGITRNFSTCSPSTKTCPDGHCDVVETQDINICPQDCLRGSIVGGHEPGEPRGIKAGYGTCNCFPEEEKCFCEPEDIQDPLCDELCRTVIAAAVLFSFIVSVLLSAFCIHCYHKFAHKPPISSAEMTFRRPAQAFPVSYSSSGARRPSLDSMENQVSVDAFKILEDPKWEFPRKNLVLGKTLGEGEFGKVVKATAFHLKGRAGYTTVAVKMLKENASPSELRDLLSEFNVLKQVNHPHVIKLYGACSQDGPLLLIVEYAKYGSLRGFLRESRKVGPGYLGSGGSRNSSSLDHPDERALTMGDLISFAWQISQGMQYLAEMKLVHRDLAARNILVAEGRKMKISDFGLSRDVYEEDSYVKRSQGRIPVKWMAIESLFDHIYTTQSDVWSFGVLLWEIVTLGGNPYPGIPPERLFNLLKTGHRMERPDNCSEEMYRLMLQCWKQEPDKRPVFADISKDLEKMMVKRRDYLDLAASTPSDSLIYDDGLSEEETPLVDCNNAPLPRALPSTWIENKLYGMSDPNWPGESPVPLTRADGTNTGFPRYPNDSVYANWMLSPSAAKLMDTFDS
Sequence of UniProt P28482 (whole entry, looked up): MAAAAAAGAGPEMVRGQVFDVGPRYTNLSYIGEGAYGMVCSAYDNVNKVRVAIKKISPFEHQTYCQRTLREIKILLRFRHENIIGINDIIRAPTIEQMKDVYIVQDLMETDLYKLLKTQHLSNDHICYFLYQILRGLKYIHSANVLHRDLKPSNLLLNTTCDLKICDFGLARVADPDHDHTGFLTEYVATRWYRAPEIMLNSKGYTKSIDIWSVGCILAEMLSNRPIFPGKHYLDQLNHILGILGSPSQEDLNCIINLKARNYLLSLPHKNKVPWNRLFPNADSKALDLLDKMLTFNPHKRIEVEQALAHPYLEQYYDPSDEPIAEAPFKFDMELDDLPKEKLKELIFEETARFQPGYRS
Sequence of UniProt P47898 (whole entry, looked up): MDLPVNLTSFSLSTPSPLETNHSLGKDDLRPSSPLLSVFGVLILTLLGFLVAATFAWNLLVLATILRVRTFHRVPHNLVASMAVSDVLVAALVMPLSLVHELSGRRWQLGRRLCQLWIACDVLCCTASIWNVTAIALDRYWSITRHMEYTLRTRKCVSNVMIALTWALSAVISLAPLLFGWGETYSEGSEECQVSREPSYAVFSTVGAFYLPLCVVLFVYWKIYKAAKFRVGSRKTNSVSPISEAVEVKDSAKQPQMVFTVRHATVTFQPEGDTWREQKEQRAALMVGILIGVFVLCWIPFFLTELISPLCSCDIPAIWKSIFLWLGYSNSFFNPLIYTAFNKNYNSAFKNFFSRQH
Sequence of UniProt Q99720 (whole entry, looked up): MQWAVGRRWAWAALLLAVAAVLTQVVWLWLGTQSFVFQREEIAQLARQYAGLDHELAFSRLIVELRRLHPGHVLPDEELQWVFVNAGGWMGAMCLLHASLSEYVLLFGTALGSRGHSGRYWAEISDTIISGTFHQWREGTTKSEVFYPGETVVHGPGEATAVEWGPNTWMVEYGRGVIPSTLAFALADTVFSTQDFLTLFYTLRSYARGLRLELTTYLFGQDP
Sequence of UniProt P35462 (whole entry, looked up): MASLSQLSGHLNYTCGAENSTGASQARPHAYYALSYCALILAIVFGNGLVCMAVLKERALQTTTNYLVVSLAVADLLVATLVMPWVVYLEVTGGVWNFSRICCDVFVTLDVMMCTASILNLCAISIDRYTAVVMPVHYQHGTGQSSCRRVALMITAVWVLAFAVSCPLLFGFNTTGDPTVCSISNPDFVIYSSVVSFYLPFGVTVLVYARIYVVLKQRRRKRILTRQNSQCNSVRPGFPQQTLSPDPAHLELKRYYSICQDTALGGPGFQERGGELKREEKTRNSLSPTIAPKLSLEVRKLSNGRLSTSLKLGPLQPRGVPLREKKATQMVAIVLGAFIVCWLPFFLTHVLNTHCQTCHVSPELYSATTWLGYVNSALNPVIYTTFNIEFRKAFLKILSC
Sequence of UniProt Q16539 (whole entry, looked up): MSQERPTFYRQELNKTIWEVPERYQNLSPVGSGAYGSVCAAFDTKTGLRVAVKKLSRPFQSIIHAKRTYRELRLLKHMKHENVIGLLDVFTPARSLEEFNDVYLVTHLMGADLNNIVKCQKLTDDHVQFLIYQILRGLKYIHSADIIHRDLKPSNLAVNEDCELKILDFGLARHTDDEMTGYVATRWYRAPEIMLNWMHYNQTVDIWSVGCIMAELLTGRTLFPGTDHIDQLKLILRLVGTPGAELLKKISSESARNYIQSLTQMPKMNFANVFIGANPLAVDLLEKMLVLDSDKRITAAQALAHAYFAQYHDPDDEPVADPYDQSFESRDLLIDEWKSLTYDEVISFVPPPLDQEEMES
Sequence of UniProt Q5BJF2 (whole entry, looked up): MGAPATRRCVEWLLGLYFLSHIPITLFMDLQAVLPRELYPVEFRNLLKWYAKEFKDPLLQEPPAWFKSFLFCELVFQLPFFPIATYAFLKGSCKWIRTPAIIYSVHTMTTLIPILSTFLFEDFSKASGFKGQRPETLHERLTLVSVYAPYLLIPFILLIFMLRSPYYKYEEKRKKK

Sample 1
Structure (SMILES): C=CC(=O)N1CCC[C@@H](n2nc(-c3ccc(Oc4ccccc4)cc3)c3c(N)ncnc32)C1
Action: inhibitor
Tested at: 1 µM
| target | read-out | inhibition |
| --- | --- | --- |
| RET (Homo sapiens, UniProt P07949, V804M) | enzyme activity | 8% |
| STK17B (Homo sapiens, UniProt O94768) | enzyme activity | 10% |
| Tyrosine-protein kinase ABL1, phosphorylated (ABL1, Homo sapiens, UniProt P00519, F317L) |  | 32% |
| MAP3K15 (Homo sapiens, UniProt Q6ZN16) | enzyme activity | 0% |
| TLK2 (Homo sapiens, UniProt Q86UE8) | enzyme activity | 4% |
| MAP3K10 (Homo sapiens, UniProt Q02779) | enzyme activity | 30% |
| MAST1 (Homo sapiens, UniProt Q9Y2H9) | enzyme activity | 5% |
| MAP3K20 (Homo sapiens, UniProt Q9NYL2) | enzyme activity | 62% |
| ZAP70 (Homo sapiens, UniProt P43403) | enzyme activity | 5% |
| AKT2 (Homo sapiens, UniProt P31751) | enzyme activity | 6% |
| SYK (Homo sapiens, UniProt P43405) | enzyme activity | 21% |
| CDKL2 (Homo sapiens, UniProt Q92772) | enzyme activity | 0% |
| TSSK1B (Homo sapiens, UniProt Q9BXA7) | enzyme activity | 14% |

Sample 2
SMILES: COc1ccc(Cl)cc1NC(=O)Nc1cc(C)nc2ccccc12
Read-out: enzyme activity
Action: inhibitor
Tested at: 0.5 µM
Baseline: control
| target | remaining activity |
| --- | --- |
| GRK4 (Homo sapiens, UniProt P32298) | 105% |
| MAPK1 (Homo sapiens, UniProt P28482) | 90.4% |
| MAPK14 (Homo sapiens, UniProt Q16539) | 98.5% |
| MAP2K1 (Homo sapiens, UniProt Q02750) | 101% |
| AKT2 (Homo sapiens, UniProt P31751) | 94.9% |
| NEK3 (Homo sapiens, UniProt P51956) | 114% |
| MARK4 (Homo sapiens, UniProt Q96L34) | 79.7% |
| MAPK11 (Homo sapiens, UniProt Q15759) | 92% |
| MET (Homo sapiens, UniProt P08581) | 96.6% |
| CLK3 (Homo sapiens, UniProt P49761) | 97.5% |
| PRKG2 (Homo sapiens, UniProt Q13237) | 105% |
| KDR (Homo sapiens, UniProt P35968) | 92.8% |
| RPS6KA4 (Homo sapiens, UniProt O75676) | 94% |
| MINK1 (Homo sapiens, UniProt Q8N4C8) | 88.7% |

Sample 3
Compound: CCC(=O)N[C@H]1CC[C@@H](C(=O)N(C)c2ccc(-c3nc4ccccc4o3)cc2)C1
Tested at: 10 µM
| target | read-out | method | inhibition [%] |
| --- | --- | --- | --- |
| ADRB1 (Homo sapiens, UniProt P08588) | binding | radioligand binding | -4.07 |
| DRD3 (Homo sapiens, UniProt P35462) | binding | radioligand binding | 12.1 |
| SIGMAR1 (Homo sapiens, UniProt Q99720) | binding | radioligand binding | 9.78 |
| HTR5A (Homo sapiens, UniProt P47898) | ligand displacement |  | -1.85 |
| DRD2 (Homo sapiens, UniProt P14416) | binding | radioligand binding | 14.3 |
| TMEM97 (Homo sapiens, UniProt Q5BJF2) | binding | radioligand binding | 33.6 |
| ADRA2A (Homo sapiens, UniProt P08913) | binding | radioligand binding | -10.7 |

Sample 4
Cell line: mouse MPNST tumor cells
Method: high-content nuclear imaging
Item: cell number
Tested at: 10 µM
Time: 12 h
Setting: mean of 2 replicates
Baseline: plate mean
Reading: higher = more cells
| SMILES | nuclei count |
| --- | --- |
| CN1CCN(CC(=O)N2c3ccccc3C(=O)Nc3cccnc32)CC1 | 2.35 z-score |
| CC(C)C[C@H](NC(=O)N1CCCCCC1)C(=O)N[C@H](Cc1cn(C)c2ccccc12)C(=O)N[C@H](Cc1ccccn1)C(=O)O | 0.558 z-score |
| N[C@@H](Cn1ccc(=O)n(Cc2ccccc2C(=O)O)c1=O)C(=O)O | -0.09 z-score |
| CCC(C)(CN(C)C)OC(=O)c1ccccc1 (centres unmarked) | 0.169 z-score |
| O=C1CCc2ccc(OCCCCN3CCN(c4cccc(Cl)c4Cl)CC3)cc2N1 | -0.258 z-score and -0.439 z-score and 2.02 z-score |
| COC1=CC(=O)C[C@@H](C)[C@]12Oc1c(Cl)c(OC)cc(OC)c1C2=O | -1.47 z-score |
| Cn1cc(CCn2cnc(-c3cnn(C)c3)c2-c2ccc(C#N)cc2)cn1 | 0.623 z-score and 1.95 z-score |
| OCc1ccc(-c2nn(Cc3ccccc3)c3ccccc23)o1 | 2.41 z-score |
| Cc1cc(C(C)(C)C)c(O)c(C)c1CC1=NCCN1 | 3.76 z-score |
| COc1ccccc1-c1c[nH]c2ncc(-c3cncc(C(=O)N(C)C)c3)cc12 | 0.499 z-score |
| CCc1cc(C(N)=S)ccn1 | -0.632 z-score |
| CC(C)(Cc1ccc2ccccc2c1)NC[C@@H](O)COc1cccc(Cl)c1C#N | -6.56 z-score |
| CN1CCN(C(c2ccccc2)c2ccccc2)CC1 | 1.75 z-score |

For quick reference, copied from above (sample 4):
| SMILES | nuclei count |
| --- | --- |
| O=C1CCc2ccc(OCCCCN3CCN(c4cccc(Cl)c4Cl)CC3)cc2N1 | -0.258 z-score and -0.439 z-score and 2.02 z-score |
| COC1=CC(=O)C[C@@H](C)[C@]12Oc1c(Cl)c(OC)cc(OC)c1C2=O | -1.47 z-score |
| Cn1cc(CCn2cnc(-c3cnn(C)c3)c2-c2ccc(C#N)cc2)cn1 | 0.623 z-score and 1.95 z-score |
| OCc1ccc(-c2nn(Cc3ccccc3)c3ccccc23)o1 | 2.41 z-score |
| Cc1cc(C(C)(C)C)c(O)c(C)c1CC1=NCCN1 | 3.76 z-score |
| COc1ccccc1-c1c[nH]c2ncc(-c3cncc(C(=O)N(C)C)c3)cc12 | 0.499 z-score |
| CCc1cc(C(N)=S)ccn1 | -0.632 z-score |
